Results gathered from unrelated publications.

Compound | cell line | read-out | method | time | notes | GI50 [nM]
C1=[N+]2CCCC[N+]3=Cc4ccc5[n]4[Au-]23[n]2c1ccc2-c1nc2ccccc2nc1-5.F[P-](F)(F)(F)(F)F | colon cancer cell lines |  |  |  | NCI60 panel mean | 7000
COC(C(=NOCC(=O)Nc1cccnc1)C(O)C(C)O)C1Cc2cc3cc(OC4CC(OC5CC(O)C(O)C(C)O5)C(O)C(C)O4)c(C)c(O)c3c(O)c2C(=O)C1OC1CC(OC2CC(OC3CC(C)(O)C(O)C(C)O3)C(O)C(C)O2)C(O)C(C)O1 (stereo not drawn) | TC-32 | cell growth |  | 72 h |  | 77
CC(=C(c1ccc(O)cc1)c1ccc(Cl)cc1)c1ccc(Cl)cc1 | ACHN | cell growth or viability |  |  |  | 3710
Cc1ccc(Nc2ncc3c(n2)N(C2CCCCC2)C(=O)N(c2cc(NC(=O)c4cccc(C(F)(F)F)c4)ccc2C)C3)cn1 | Huh-7 | cell growth or viability | ATP luminescence | 72 h |  | 93
COC(C(=NOCc1ccc([N+](=O)[O-])cc1)C(O)C(C)O)C1Cc2cc3cc(OC4CC(OC5CC(O)C(O)C(C)O5)C(O)C(C)O4)c(C)c(O)c3c(O)c2C(=O)C1OC1CC(OC2CC(OC3CC(C)(O)C(O)C(C)O3)C(O)C(C)O2)C(O)C(C)O1 (stereo not drawn) | TC-32 | cell growth |  | 72 h |  | 75
Cc1ccc(Nc2ncc3c(n2)N(C)C(=O)N(c2cc(NC(=O)c4cc(N5CCC(O)CC5)cc(C(F)(F)F)c4)ccc2C)C3)cn1 | Huh-7 | cell growth or viability | ATP luminescence | 72 h |  | 37
COC(C(=NOCc1ccccc1)C(O)C(C)O)C1Cc2cc3cc(OC4CC(OC5CC(O)C(O)C(C)O5)C(O)C(C)O4)c(C)c(O)c3c(O)c2C(=O)C1OC1CC(OC2CC(OC3CC(C)(O)C(O)C(C)O3)C(O)C(C)O2)C(O)C(C)O1 (stereo not drawn) | TC-32 | cell growth |  | 72 h |  | 117
Cc1ccc(NC(=O)c2cccc(C(F)(F)F)c2)cc1N1Cc2cnc(N)nc2N(C)C1=O | Huh-7 | cell growth or viability | ATP luminescence | 72 h |  | 531
COC(C(=NOCC(=O)Nc1cncnc1)C(O)C(C)O)C1Cc2cc3cc(OC4CC(OC5CC(O)C(O)C(C)O5)C(O)C(C)O4)c(C)c(O)c3c(O)c2C(=O)C1OC1CC(OC2CC(OC3CC(C)(O)C(O)C(C)O3)C(O)C(C)O2)C(O)C(C)O1 (stereo not drawn) | TC-32 | cell growth |  | 72 h |  | 361
Cc1ccc(Nc2ncc3c(n2)N(c2ccccc2)C(=O)N(c2cc(NC(=O)c4cccc(C(F)(F)F)c4)ccc2C)C3)cn1 | Hep3B | cell growth or viability | ATP luminescence | 72 h |  | 1510
CC(Cc1ccc(Cl)cc1)=C(c1ccc(Cl)cc1)c1ccc(OCCN(C)C)cc1 | EKVX | cell growth or viability | SRB |  |  | 4750
CC(C)c1cnn2c(NCc3ccccc3F)cc(N[C@H]3CC[C@@H](N)CC3)nc12 | HCT-116, MCF7 and A549 |  |  |  |  | 1000
Cc1ccc(Nc2ncc3c(n2)N(Cc2ccccc2)C(=O)N(c2cc(NC(=O)c4cccc(C(F)(F)F)c4)ccc2C)C3)cn1 | Hep3B | cell growth or viability | ATP luminescence | 72 h |  | 633
CC/C=C\C/C=C\C/C=C\C/C=C\C/C=C\C/C=C\CCC(=O)Nc1ccn(C2OC(CO)C(O)C2(F)F)c(=O)n1 (stereo not drawn) | RXF 393 | cell growth or viability | SRB |  |  | 140
CS(=O)(=O)c1ccc(-c2nnc(/C=C/c3nnc(-c4ccc(C#N)cc4)o3)n2-c2ccccc2Cl)nc1 | COLO 320DM | cell growth or viability | MTT | 5 days |  | 434

Some of these lines once more:
Compound | cell line | read-out | method | time | notes | GI50 [nM]
COC(C(=NOCC(=O)Nc1cccnc1)C(O)C(C)O)C1Cc2cc3cc(OC4CC(OC5CC(O)C(O)C(C)O5)C(O)C(C)O4)c(C)c(O)c3c(O)c2C(=O)C1OC1CC(OC2CC(OC3CC(C)(O)C(O)C(C)O3)C(O)C(C)O2)C(O)C(C)O1 (stereo not drawn) | TC-32 | cell growth |  | 72 h |  | 77
Cc1ccc(Nc2ncc3c(n2)N(C)C(=O)N(c2cc(NC(=O)c4cc(N5CCC(O)CC5)cc(C(F)(F)F)c4)ccc2C)C3)cn1 | Huh-7 | cell growth or viability | ATP luminescence | 72 h |  | 37
